{"data": "Published values pooled from the literature", "note": "Protocols differ between the studies behind these lines. Numbers after ± are the reported error."}
{"Structure (SMILES)": "NNCC1=C(O)C(=O)c2ccccc2C1=O", "cell line": "BGM (monkey kidney)", "test": "MTT", "system": "10% FCS", "setting": "24 h", "quantity": "median lethal concentration", "value": "257 µM"}
{"Structure (SMILES)": "CCCCn1cc(C(=O)O)c(=O)c2cc(F)c3c(nnn3-c3cccc(Cl)c3)c21", "cell line": "SW-620", "test": "cell growth, SRB", "setting": "72 h", "quantity": "IC50", "value": "45.7 ± 1.22 µg/mL"}
{"Structure (SMILES)": "CC(C)c1ccc2c(c1)CC[C@H]1[C@](C)(C(=O)OCC#CCN3CCOCC3)CCC[C@]21C", "cell line": "BHK-21-hACE2", "setting": "20.0 µM, 48 (unit not given)", "quantity": "viability", "value": "108%"}
{"Structure (SMILES)": "Fc1ccc(Nc2c3c(nc4ccccc24)CCCC3)cc1", "cell line": "HepG2", "test": "MTT", "setting": "50 µM, 24 h, 10% FBS", "quantity": "inhibition", "value": "-1.23 ± 0.16%"}
{"Structure (SMILES)": "COc1c(OC(=O)N(C)c2ccc(C)cc2)cc2oc3cc4c(c(O)c3c(=O)c2c1CC=C(C)C)C=CC(C)(C)O4", "cell line": "PC-12", "test": "cell proliferation, MTT", "setting": "10 µM, 24 h", "quantity": "inhibition", "value": "7.8%"}
{"Structure (SMILES)": "NCCCC[C@H](NC(=O)[C@H](Cc1ccc(O)cc1)NC(=O)[C@H](CCCCN)NC(=O)[C@@H](N)Cc1c[nH]c2ccccc12)C(=O)NCC(=O)N[C@@H](Cc1c[nH]cn1)C(=O)N1CCC[C@H]1C(=O)NCC(=O)NCC(=O)N1CCC[C@H]1C(=O)N[C@@H](CCC(N)=O)C(=O)N[C@@H](CC(=O)O)C(=O)N[C@@H](CC(=O)O)C(=O)N[C@@H](CC(=O)O)C(=O)N[C@@H](CC(=O)O)C(=O)N[C@@H](CC(=O)O)C(=O)N[C@@H](CC(=O)O)C(=O)O", "cell line": "mouse bone marrow macrophages", "test": "CCK-8", "setting": "concentration not given, 24 h", "quantity": "cytotoxicity", "value": "not toxic"}
{"Structure (SMILES)": "CC(C)C[C@@H]1NC(=O)[C@@H](Cc2c[nH]c3ccccc23)NC(=O)[C@H](CCCN)NC(=O)[C@@H](CO)NC(=O)[C@H](CCC(N)=O)NC(=O)[C@@H](CCC(=O)O)NC(=O)[C@H](CO)NC(=O)[C@@H](Cc2c[nH]c3ccccc23)NC1=O", "cell line": "erythrocytes", "test": "hemolysis", "quantity": "HD50", "value": "> 500 µM"}
{"Structure (SMILES)": "CC(=O)Oc1ccc(Cn2cc(C)c(=O)[nH]c2=O)cc1C1OC(c2ccccc2)=NN1C(C)=O (centres unmarked)", "cell line": "HEL fibroblasts", "test": "cell morphology, microscopy", "quantity": "minimum cytotoxic concentration", "value": "≥ 100 µM"}
{"Structure (SMILES)": "N=C(N)NCCC[C@@H]1NC(=O)[C@H](Cc2csc3ccccc23)NC(=O)[C@@H](Cc2ccccc2)NC(=O)[C@H](Cc2ccccc2)NC(=O)[C@H](CCC(=O)NCCOCCOCC(=O)N[C@@H](CCCCNC(=O)c2ccc3c(c2)C(=O)OC32c3ccc4cc(O)ccc4c3Oc3c2ccc2cc(O)ccc32)C(N)=O)NC(=O)[C@@H](CCCNC(=N)N)NC(=O)[C@H](CCCNC(=N)N)NC(=O)[C@@H](CCCNC(=N)N)NC1=O", "cell line": "HeLa", "test": "flow cytometry", "setting": "1.0 µM, 2 h, 1% FBS", "how to read": "reference: CPP12", "quantity": "cellular uptake", "value": "88 ± 8%"}
{"Structure (SMILES)": "Cc1cccnc1Nc1c2c(nc3ccccc13)CCC(C)C2 (centres unmarked)", "cell line": "HepG2", "test": "MTT", "setting": "50 µM, 24 h, 10% FBS", "quantity": "inhibition", "value": "-10.1 ± 0.34%"}
{"Structure (SMILES)": "COc1c(OC(=O)N(C)c2ccc(Br)cc2)cc2oc3cc4c(c(O)c3c(=O)c2c1CC=C(C)C)C=CC(C)(C)O4", "cell line": "PC-12", "test": "cell proliferation, MTT", "setting": "10 µM, 24 h", "quantity": "inhibition", "value": "5.3%"}
{"note": "Repeated from above:"}
{"Structure (SMILES)": "Cc1cccnc1Nc1c2c(nc3ccccc13)CCC(C)C2 (centres unmarked)", "cell line": "HepG2", "test": "MTT", "setting": "50 µM, 24 h, 10% FBS", "quantity": "inhibition", "value": "-10.1 ± 0.34%"}
